Results collected from several papers.
Protocols differ between the studies behind these lines. ± marks the error that the study gave.
Cell line: HT-29

NS(=O)(=O)c1ccc(NC(=O)NN[C@@H]2O[C@H](CO)[C@@H](O)[C@H](O)[C@H]2O)cc1 — IC50 (cell growth or viability, MTT; 96 h): 92 µM
CCCCNC(=O)O[C@H]1[C@H](C)O[C@@H](O[C@H]2[C@H](N(C)C)[C@@H](O)[C@H](O[C@H]3[C@@H](CC=O)C[C@@H](C)[C@@H](O[C@H]4CC[C@H](N(C)C)[C@@H](C)O4)/C=C/C=C/C[C@@H](C)OC(=O)C[C@@H](O)[C@@H]3OC)O[C@@H]2C)C[C@@]1(C)O — IC50 (cell growth or viability, CCK-8; 72 h): > 50 µM
CNCCNC(=O)c1cn(C23CCCC(C)(CCC4C2CC4(C)C)C3)nn1 (centres unmarked) — IC50 (cell growth or viability, CCK-8; 72 h): 8.8 µM
CCCCSc1nc(N)c2c(F)c(C#N)c(F)c(F)c2n1 — IC50 (cell growth or viability, MTT; 96 h): 8 µM
COc1cc(C2COc3cc(O)cc(O)c3C2=NN)c(OC)cc1O (centres unmarked) — IC50 (cell growth or viability, MTT; 72 h): 97.8 µM
COc1ccc(NC(=O)c2ccc(NC(=O)CN3C(=O)S/C(=C\c4ccccc4OC)C3=O)cc2)cc1 — IC50 (cell growth or viability, MTT): 18.6 µM
C#CCN(CC(=O)O[C@H]1[C@H](C)O[C@@H](O[C@H]2[C@H](N(C)C)[C@@H](O)[C@H](O[C@H]3[C@@H](CC=O)C[C@@H](C)[C@@H](O[C@H]4CC[C@H](N(C)C)[C@@H](C)O4)/C=C/C=C/C[C@@H](C)OC(=O)C[C@@H](O)[C@@H]3OC)O[C@@H]2C)C[C@@]1(C)O)C(=O)c1ccc(C(C)(C)C)cc1 — IC50 (cell growth or viability, CCK-8; 72 h): 1.84 µM
N#Cc1c(F)c(Cl)c2nc(SCC3CCCO3)nc(N)c2c1F (centres unmarked) — IC50 (cell growth or viability, MTT; 96 h): 6.87 µM
C#CCN(CC(=O)O[C@H]1[C@H](C)O[C@@H](O[C@H]2[C@H](N(C)C)[C@@H](O)[C@H](O[C@H]3[C@@H](CC=O)C[C@@H](C)[C@@H](O[C@H]4CC[C@H](N(C)C)[C@@H](C)O4)/C=C/C=C/C[C@@H](C)OC(=O)C[C@@H](O)[C@@H]3OC)O[C@@H]2C)C[C@@]1(C)O)Cc1ccc(C(F)(F)F)cc1 — IC50 (cell growth or viability, CCK-8; 72 h): 2.15 µM
COc1ccc(C(=O)c2cc(C(=O)c3cc(Cl)ccc3O)c[n+]3c2NCCCC3)cc1 — IC50 (cell growth or viability, MTT; 96 h): 14.1 µM
CN(C)C(=S)N(C)N=Cc1ccccc1SSc1ccccc1C=NN(C)C(=S)N(C)C — IC50 (cell proliferation, MTT; 72 h): 0.9 ± 0.2 µM
C=C(CO)C(=O)O[C@H]1CC(=C)[C@@H]2C[C@H](O)[C@](O)(CCl)[C@@H]2[C@H]2OC(=O)C(=C)C12 (some centres unmarked) — IC50 (cell growth or viability): 2.5 µg/mL
CO[C@@H]1[C@@H](O[C@@H]2O[C@H](C)[C@@H](O[C@H]3C[C@@](C)(O)[C@@H](OC(=O)CC(C)C)[C@H](C)O3)[C@H](N(C)C)[C@H]2O)[C@@H](CC=O)C[C@@H](C)[C@@H](O[C@H]2CC[C@H](N(C)C)[C@@H](C)O2)/C=C/C=C/C[C@@H](C)OC(=O)C[C@H]1O — IC50 (cell growth or viability, CCK-8; 72 h): 13.2 µM
CC(=O)O[C@H]1CC[C@]2(C)[C@H]3CC=C4[C@@H]5[C@@H](C)[C@H](C)CC[C@]5(C)CC[C@@]4(C)[C@]3(C)CC[C@H]2C1(C)C — IC50 (cell growth or viability, resazurin; 96 h): 7.97 µg/mL
COc1c(C)c(O)c(C(=O)C=Cc2ccccc2)c(OC)c1C — IC50 (cell growth or viability, SRB; 72 h): 19.7 µM
CN1CCCC1CS(=O)(=O)NC12CCCC(C)(CCC3C1CC3(C)C)C2 (centres unmarked) — IC50 (cell growth or viability, CCK-8; 72 h): 11.5 µM
N#Cc1c(F)c(F)c2nc(SCc3ccccc3)nc(N)c2c1F — IC50 (cell growth or viability, MTT; 96 h): 6.06 µM
CO[C@@H]1[C@@H](O[C@@H]2O[C@H](C)[C@@H](O[C@H]3C[C@@](C)(O)[C@@H](OC(=O)Nc4ccc(C(F)(F)F)cc4)[C@H](C)O3)[C@H](N(C)C)[C@H]2O)[C@@H](CC=O)C[C@@H](C)[C@@H](O[C@H]2CC[C@H](N(C)C)[C@@H](C)O2)/C=C/C=C/C[C@@H](C)OC(=O)C[C@H]1O — IC50 (cell growth or viability, CCK-8; 72 h): 3.2 µM
CC1CNCCN1C(=O)c1cn(C23CCCC(C)(CCC4C2CC4(C)C)C3)nn1 (centres unmarked) — IC50 (cell growth or viability, CCK-8; 72 h): 4.08 µM
O=C(/C=C(O)/C=C/c1cccs1)/C=C/c1cccs1 — IC50 (cell growth or viability, SRB; 72 h): 59.1 µM
Cc1cnc(NC2CCOCC2)nc1-n1cnc(C(=O)NC(CN)c2cc(F)cc(Cl)c2)c1 (centres unmarked) — IC50 (RSK1 Ser380 phosphorylation, ELISA; 2 h): 0.007 µM
COc1c(C)c(OS(=O)(=O)c2ccccc2)c(C)c2c1C(=O)CC(c1ccccc1)O2 (centres unmarked) — IC50 (cell growth or viability, SRB; 72 h): 45.5 µM
CCN(CC)CCO/N=C1/C=C2CCC3C(CC[C@]4(C)/C(=C/c5ccccn5)CCC34)[C@@]2(C)CC1 (some centres unmarked) — IC50 (cell growth or viability, MTT; 72 h): > 100 µM
CCCCCCCCSc1nc(N)c2c(F)c(C#N)c(F)c(Cl)c2n1 — IC50 (cell growth or viability, MTT; 96 h): > 100 µM
O=C(CNc1nnc(-c2ccccc2)s1)N1CCC(=C2c3ncccc3CCc3cc(Cl)cc(Br)c32)CC1 — IC50 (cell growth or viability, SRB): > 120 µM
NS(=O)(=O)c1ccc(NC(=O)NN[C@@H]2OC[C@@H](O)[C@H](O)[C@H]2O)cc1 — IC50 (cell growth or viability, MTT; 96 h): > 100 µM
COc1cc(OC)c2c(c1)OCC(c1cc(OC)c(OC)cc1OC)C2=NO (centres unmarked) — IC50 (cell growth or viability, MTT; 72 h): 115 µM
O=C(CSc1nnc(-c2ccccc2)o1)N1CCC(=C2c3ncccc3CCc3cc(Cl)cc(Br)c32)CC1 — IC50 (cell growth or viability, SRB): > 120 µM
CCCCSc1nc(N)c2c(F)c(F)c(C#N)c(F)c2n1 — IC50 (cell growth or viability, MTT; 96 h): 35.7 µM
CO[C@@H]1[C@@H](O[C@@H]2O[C@H](C)[C@@H](O[C@H]3C[C@@](C)(O)[C@@H](OC(=O)C4CCCCC4)[C@H](C)O3)[C@H](N(C)C)[C@H]2O)[C@@H](CC=O)C[C@@H](C)[C@@H](O[C@H]2CC[C@H](N(C)C)[C@@H](C)O2)/C=C/C=C/C[C@@H](C)OC(=O)C[C@H]1O — IC50 (cell growth or viability, CCK-8; 72 h): 5.01 µM
NS(=O)(=O)c1ccc(NC(=O)NN[C@@H]2O[C@H](CO)[C@@H](O)[C@H]2O)cc1 — IC50 (cell growth or viability, MTT; 96 h): 81 µM
O=C(CN1CCN(c2nsc3ccccc23)CC1)N1CCC(=C2c3ncccc3CCc3cc(Cl)cc(Br)c32)CC1 — IC50 (cell growth or viability, SRB): < 15 µM
CN(C)CCCS(=O)(=O)NC12CCCC(C)(CCC3C1CC3(C)C)C2 (centres unmarked) — IC50 (cell growth or viability, CCK-8; 72 h): 11.8 µM
CCCC(=O)Oc1c(C)c(OC)c2c(/C=C/c3ccccc3)c(CC)c(=O)oc2c1C — IC50 (cell growth or viability, SRB; 72 h): 30.9 µM
C[C@]12CC/C(=N\O)C=C1CCC1C2CC[C@]2(C)/C(=C/c3ccccn3)CCC12 (some centres unmarked) — IC50 (cell growth or viability, MTT; 72 h): 4.4 µM
O=C(CSc1nc(-c2ccccc2)n[nH]1)N1CCC(=C2c3ncccc3CCc3cc(Cl)cc(Br)c32)CC1 — IC50 (cell growth or viability, SRB): 80 µM
O=C(CN1C(=O)S/C(=C\c2ccccc2Br)C1=O)Nc1ccc(C(=O)Nc2ccc(F)cc2)cc1 — IC50 (cell growth or viability, MTT): 22.3 µM
C=CCSc1nc(N)c2c(F)c(C#N)c(F)c(Cl)c2n1 — IC50 (cell growth or viability, MTT; 96 h): 14.2 µM
C[C@]12CC/C(=N\OCCN3CCCC3)C=C1CCC1C2CC[C@]2(C)/C(=C/c3ccccn3)CCC12 (some centres unmarked) — IC50 (cell growth or viability, MTT; 72 h): 3.3 µM
O=C(NCCN1CCOCC1)c1cc2c3ccccc3n3c(=O)ccc(n1)c23 — IC50 (cell growth or viability, MTT; 72 h): 1.1 µM
CCCCc1ccc(C(=O)O[C@H]2[C@H](C)O[C@@H](O[C@H]3[C@H](N(C)C)[C@@H](O)[C@H](O[C@H]4[C@@H](CC=O)C[C@@H](C)[C@@H](O[C@H]5CC[C@H](N(C)C)[C@@H](C)O5)/C=C/C=C/C[C@@H](C)OC(=O)C[C@@H](O)[C@@H]4OC)O[C@@H]3C)C[C@@]2(C)O)cc1 — IC50 (cell growth or viability, CCK-8; 72 h): 4.67 µM
N#Cc1c(F)c(Cl)c2nc(SCc3ccc4ccccc4c3)nc(N)c2c1F — IC50 (cell growth or viability, MTT; 96 h): 6.54 µM
C[C@@H]1O[C@@H](NNC(=O)Nc2ccc(S(N)(=O)=O)cc2)[C@H](O)[C@H](O)[C@H]1O — IC50 (cell growth or viability, MTT; 96 h): 86 µM
N#Cc1c(F)c(F)c2nc(SCc3ccc4ccccc4c3)nc(N)c2c1F — IC50 (cell growth or viability, MTT; 96 h): 5.8 µM
CN(C)CCO/N=C1/C=C2CCC3C(CC[C@]4(C)/C(=C/c5ccccn5)CCC34)[C@@]2(C)CC1 (some centres unmarked) — IC50 (cell growth or viability, MTT; 72 h): 13 µM
CC12CCCC(NS(=O)(=O)C3CCN(Cc4ccccc4)C3)(C1)C1CC(C)(C)C1CC2 (centres unmarked) — IC50 (cell growth or viability, CCK-8; 72 h): 16.4 µM
CO[C@@H]1[C@@H](O[C@@H]2O[C@H](C)[C@@H](O[C@H]3C[C@@](C)(O)[C@@H](OC(=O)CN(C)C)[C@H](C)O3)[C@H](N(C)C)[C@H]2O)[C@@H](CC=O)C[C@@H](C)[C@@H](O[C@H]2CC[C@H](N(C)C)[C@@H](C)O2)/C=C/C=C/C[C@@H](C)OC(=O)C[C@H]1O — IC50 (cell growth or viability, CCK-8; 72 h): > 50 µM

A few entries again:
O=C(CN1CCN(c2nsc3ccccc23)CC1)N1CCC(=C2c3ncccc3CCc3cc(Cl)cc(Br)c32)CC1 — IC50 (cell growth or viability, SRB): < 15 µM
CN(C)CCCS(=O)(=O)NC12CCCC(C)(CCC3C1CC3(C)C)C2 (centres unmarked) — IC50 (cell growth or viability, CCK-8; 72 h): 11.8 µM
CCCC(=O)Oc1c(C)c(OC)c2c(/C=C/c3ccccc3)c(CC)c(=O)oc2c1C — IC50 (cell growth or viability, SRB; 72 h): 30.9 µM
C[C@]12CC/C(=N\O)C=C1CCC1C2CC[C@]2(C)/C(=C/c3ccccn3)CCC12 (some centres unmarked) — IC50 (cell growth or viability, MTT; 72 h): 4.4 µM
O=C(CSc1nc(-c2ccccc2)n[nH]1)N1CCC(=C2c3ncccc3CCc3cc(Cl)cc(Br)c32)CC1 — IC50 (cell growth or viability, SRB): 80 µM
